Measurements pooled from the literature.
Each line is one published result; not all experiments were run side by side.
Target: Serine/threonine-protein kinase PAK 6 (PAK6, Homo sapiens, UniProt Q9NQU5)
Sequence of UniProt Q9NQU5 (whole entry, looked up): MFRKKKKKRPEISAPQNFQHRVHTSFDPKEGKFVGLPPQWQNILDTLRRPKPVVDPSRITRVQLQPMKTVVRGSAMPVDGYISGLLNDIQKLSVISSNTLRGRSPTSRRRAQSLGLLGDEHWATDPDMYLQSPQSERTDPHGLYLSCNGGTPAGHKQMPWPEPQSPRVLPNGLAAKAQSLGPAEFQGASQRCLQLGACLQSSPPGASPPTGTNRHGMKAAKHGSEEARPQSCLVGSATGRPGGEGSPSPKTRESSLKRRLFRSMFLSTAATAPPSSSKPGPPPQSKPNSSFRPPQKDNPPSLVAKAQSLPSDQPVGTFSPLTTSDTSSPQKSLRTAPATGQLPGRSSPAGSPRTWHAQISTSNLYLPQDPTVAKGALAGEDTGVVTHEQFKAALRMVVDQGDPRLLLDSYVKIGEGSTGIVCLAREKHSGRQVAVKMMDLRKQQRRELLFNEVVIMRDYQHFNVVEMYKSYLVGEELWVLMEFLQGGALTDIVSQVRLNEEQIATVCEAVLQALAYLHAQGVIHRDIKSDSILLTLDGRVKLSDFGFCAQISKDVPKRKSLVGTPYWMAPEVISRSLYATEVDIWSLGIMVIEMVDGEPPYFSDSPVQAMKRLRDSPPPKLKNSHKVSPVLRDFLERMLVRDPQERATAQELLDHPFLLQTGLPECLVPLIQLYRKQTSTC

| SMILES | test | setting | how to read | quantity | value |
| --- | --- | --- | --- | --- | --- |
| COc1cc(F)ccc1-c1ncnc(Nc2cccc(C[S@](C)(=N)=O)c2)n1 | kinase activity | 10 µM, with: 10 µM ATP |  | remaining activity | 100% |
| C=CC(=O)N1CCC(COCC(=O)N2CCN(c3nc(-c4cnc(N)nc4C(F)F)nc(N4CCOC[C@@H]4C)n3)CC2)CC1 | KINOMEscan | 1 µM |  | remaining binding | 100% |
| Cc1cc(Nc2cc(N3CCN(C)CC3)nc(Sc3ccc(NC(=O)C4CC4)cc3)n2)[nH]n1 | kinase activity, KinaseProfiler | 0.03 µM, species human | baseline: control | remaining activity | 107% |
| COCCNc1nc2ccc(C#CC3(O)CCCCC3)cc2n1-c1ccnc(N)n1 | enzyme activity, inhibitor, Z'-LYTE | 1 µM | baseline: no-inhibitor control | remaining kinase activity | 49.9% |
| O=C1NC(=O)/C(=C/c2ccc(-c3ccc(F)cc3O)o2)S1 | enzyme activity | 10 µM |  | remaining activity | 71% |
| CN1CC(Oc2cnc(C#N)cc2-c2ccn3nc(NC(=O)C4CC4)cc3c2)C1 | inhibitor, KinaseProfiler panel | 1 µM |  | inhibition | -19% |
| C=CC(=O)N1CCC(C(=O)NCC(=O)N2CCN(c3nc(-c4cnc(N)nc4C(F)F)nc(N4CCOCC4)n3)CC2)CC1 | KINOMEscan | 1 µM |  | remaining binding | 100% |
| Nc1ncc2c(n1)-c1c([nH]c3ccc(-c4ccc(F)cc4)cc13)CCC2 | kinase activity, inhibitor, radiometric | 1 µM, with: ATP at Km |  | remaining activity | 97% |
| CNc1ncc2c(/C=C/C(=O)N3CCC(OC)CC3)nn(Cc3cccc(C(F)(F)F)c3)c2n1 | kinase activity, inhibitor | 1 µM | baseline: untreated control | remaining activity | 95% |

For quick reference, copied from above:
| SMILES | test | setting | how to read | quantity | value |
| --- | --- | --- | --- | --- | --- |
| Nc1ncc2c(n1)-c1c([nH]c3ccc(-c4ccc(F)cc4)cc13)CCC2 | kinase activity, inhibitor, radiometric | 1 µM, with: ATP at Km |  | remaining activity | 97% |
